Experimental data gathered from unrelated publications.
Each numbered part is a random draw from the data of one study; scales do not carry over between parts. “And” joins repeats or separate records; there may be more than shown.

Sample 1 — cell line: A-375; concentration: 100 µM; time: 36 h
SMILES | viability
Cc1ncc([N+](=O)[O-])n1CC(C)O (stereo not shown) | 113%
CCCCCOC(=O)Nc1nc(=O)n([C@@H]2O[C@H](C)[C@@H](O)[C@H]2O)cc1F | 115%
C[N+](C)(C)CCOC(N)=O | 112%
C[C@]12C=CC(=O)C=C1CC[C@@H]1[C@@H]2[C@@H](O)C[C@@]2(C)[C@H]1CC[C@]2(O)C(=O)COP(=O)(O)O | 104%
CN(C)CCc1c[nH]c2ccc(C[C@H]3COC(=O)N3)cc12 | 110%
CCCOc1ccc(C(=O)OCCN(CC)CC)cc1N | 84%
O[C@H]1[C@H](O)[C@@H](O)[C@H](O)[C@@H](O)[C@H]1O | 125%
Cc1cnc(C(=O)N[C@H]2CCCCC/C=C\[C@@H]3C[C@@]3(C(=O)NS(=O)(=O)C3CC3)NC(=O)[C@@H]3C[C@@H](Oc4nc5ccccc5c5ccccc45)CN3C2=O)cn1 | 7.04%
CS(=O)(=O)Nc1ccc([N+](=O)[O-])cc1Oc1ccccc1 | 98.1%
CC(C(=O)O)c1ccc2c(c1)Cc1cccnc1O2 (stereo not shown) | 105%
CC(C)(Oc1ccc(C(=O)c2ccc(Cl)cc2)cc1)C(=O)O | 103%

Sample 2 — method: KINOMEscan; concentration: 10 µM; reference: DMSO control; direction: lower = stronger binding
SMILES: COc1cc(C(=O)N2CCC(N3CCN(C)CC3)CC2)ccc1Nc1ncc2c(n1)N(C)c1ccccc1C(=O)N2C
target | binding
ACVRL1 | 100%
CSNK2A1 | 100%
CHEK1 | 100%
CDK5 | 81%
MAP4K3 | 71%
PAK1 | 95%
LKB1 | 96%
MST2 | 71%
PIK4CB | 95%
FLT3 | 100%
PAK2 | 65%
ABL2 | 97%
ERK4 | 100%
CDKL1 | 78%

Sample 3 — observed: enzyme activity; mode: inhibitor; concentration: 0.5 µM; reference: control
Target: Platelet-derived growth factor receptor alpha (PDGFRA, Homo sapiens, UniProt P16234)
UniProt P16234, sequence (whole entry, looked up): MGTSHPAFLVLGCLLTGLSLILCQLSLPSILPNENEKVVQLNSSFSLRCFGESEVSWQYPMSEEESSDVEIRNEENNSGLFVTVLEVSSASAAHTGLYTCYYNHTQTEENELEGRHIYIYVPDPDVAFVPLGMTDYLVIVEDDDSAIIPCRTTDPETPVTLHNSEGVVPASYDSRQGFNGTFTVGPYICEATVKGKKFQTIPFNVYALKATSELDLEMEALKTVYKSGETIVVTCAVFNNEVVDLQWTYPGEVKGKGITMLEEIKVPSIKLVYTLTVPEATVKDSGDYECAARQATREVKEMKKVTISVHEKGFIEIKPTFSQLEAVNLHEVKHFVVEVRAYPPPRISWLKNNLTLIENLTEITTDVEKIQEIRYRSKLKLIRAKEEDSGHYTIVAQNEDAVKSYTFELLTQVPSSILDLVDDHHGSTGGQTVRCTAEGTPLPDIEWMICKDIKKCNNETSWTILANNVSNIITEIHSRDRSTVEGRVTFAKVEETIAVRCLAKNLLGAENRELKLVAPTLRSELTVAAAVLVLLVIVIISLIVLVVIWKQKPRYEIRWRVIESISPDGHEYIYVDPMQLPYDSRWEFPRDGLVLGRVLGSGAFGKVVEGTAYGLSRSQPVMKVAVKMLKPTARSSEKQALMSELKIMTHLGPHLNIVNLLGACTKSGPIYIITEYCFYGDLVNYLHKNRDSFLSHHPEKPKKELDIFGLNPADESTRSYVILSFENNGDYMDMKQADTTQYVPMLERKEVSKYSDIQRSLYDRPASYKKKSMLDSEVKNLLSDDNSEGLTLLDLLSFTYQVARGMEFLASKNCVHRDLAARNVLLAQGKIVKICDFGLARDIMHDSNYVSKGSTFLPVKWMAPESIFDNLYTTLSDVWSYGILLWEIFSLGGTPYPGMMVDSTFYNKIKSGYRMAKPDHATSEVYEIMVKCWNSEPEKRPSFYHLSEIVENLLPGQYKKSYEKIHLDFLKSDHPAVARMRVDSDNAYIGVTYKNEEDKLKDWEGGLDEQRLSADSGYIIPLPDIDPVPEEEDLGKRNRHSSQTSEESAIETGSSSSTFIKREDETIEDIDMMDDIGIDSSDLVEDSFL
Compound | remaining activity
CC(=O)O/N=C1/C(c2c(O)[nH]c3cc(Br)ccc23)=Nc2ccccc21 | 82.9%
O=C1NC(=O)/C(=C/c2ccc3nccnc3c2)S1 | 106%
CC(C)c1nn(-c2c(Cl)cccc2Cl)c2nc(Cc3ccc(OCCO)cc3)[nH]c(=O)c12 | 91.6%
COc1cc2ncnc(N3CCN(C(=O)Nc4ccc(Oc5ccccc5)cc4)CC3)c2cc1OC | 16.4%
C[S+]([O-])c1ccc(-c2nc(-c3ccncc3)c(-c3ccc(F)cc3)[nH]2)cc1 (stereo not shown) | 98.8%
CN(C)CCCn1cc(C2=C(c3c[nH]c4ccccc34)C(=O)NC2=O)c2ccccc21 | 69.2%
CCN1/C(=C/C(C)=O)Sc2ccc(OC)cc21 | 105%
O=C(Nc1ccc(Cl)cc1)c1ccccc1NCc1ccncc1 | 81.3%
Cc1nc(Nc2ncc(C(=O)Nc3c(C)cccc3Cl)s2)cc(N2CCN(CCO)CC2)n1 | 1.82%
Cn1cnc2cc3c(Nc4cccc(Br)c4)ncnc3cc21 | 107%

Sample 4 — concentration: 0.1 µM; reference: DMSO
SMILES: CNC(=O)Nc1ccc2c(c1)CC[C@]21OC(=O)N(CC(=O)N(Cc2ccc(F)cc2)[C@@H](C)C(F)(F)F)C1=O
cell line | method | setting | viability
normal-adjacent epithelium patient-derived organoids sample G | CellTiter-Glo | – | 97.9% and 112%
sample BA colorectal tumour organoid | – | – | 121%
sample C colorectal tumour organoid | – | replicate 2 | 106%
sample I colorectal tumour organoid | – | replicate 2 | 96.6%
sample C colorectal tumour organoid | – | – | 113%
sample I colorectal tumour organoid | – | replicate 1 | 100%
normal-adjacent epithelium patient-derived organoids sample F | CellTiter-Glo | – | 106% and 85.9%
sample I colorectal tumour organoid | – | – | 98.3%
colorectal tumour organoids | – | – | 110%
sample B colorectal tumour organoid | – | – | 104%
sample C colorectal tumour organoid | – | replicate 1 | 119%
normal-adjacent epithelium patient-derived organoids sample H | CellTiter-Glo | – | 101% and 120%
sample B colorectal tumour organoid | – | replicate 2 | 110%
sample B colorectal tumour organoid | – | replicate 1 | 98.7%
